Experimental data collected from several papers.
± gives the spread as reported.
rep papain-like protease: Replicase polyprotein 1ab, papain-like protease (rep, Severe acute respiratory syndrome coronavirus 2, UniProt P0DTD1)
rep nsp12 RdRp: Replicase polyprotein 1ab, nsp12 RdRp (rep, Severe acute respiratory syndrome coronavirus 2, UniProt P0DTD1)

Cc1cccc(NC(=O)CSc2c[nH]c3ccccc23)c1  EC50 (Replicase polyprotein 1ab, nsp12 with nsp14/nsp10 (rep, Severe acute respiratory syndrome coronavirus 2, UniProt P0DTD1); RdRp reporter activity, inhibitor, Gaussia luciferase reporter; HEK293T; 24 h, together with: nsp7, nsp8, nsp10, nsp14): 2560 nM
Cc1ccc(OCCN(C)C)cc1C(=O)N[C@H](C)c1cc(-c2cnn(C)c2)cc(-c2cnn(C)c2)c1  EC50 (rep papain-like protease; protease activity, inhibitor, FlipGFP; SARS-CoV-2): 1800 ± 200 nM
COc1ccc(O)c(C=NN2C(=O)c3ccccc3NC2c2cc(OC)ccc2O)c1 (stereo not drawn)  EC50 (Replicase polyprotein 1ab, main protease (rep, Severe acute respiratory syndrome coronavirus 2, UniProt P0DTD1); viral replication, GFP reporter; HEK293T, SARS-CoV-2; 48 h): ~6500 nM
Cc1ccc(OCCN(C)C)cc1C(=O)N[C@H](C)c1cc(-c2cnn(CC(=O)N(C)C)c2)nc2ccccc12  EC50 (rep papain-like protease; viral replication): 32000 nM
O=C(CSc1c[nH]c2ccccc12)NCc1ccc(Cl)c(Cl)c1  EC50 (rep nsp12 RdRp; SARS-CoV-2 RdRp (nsp12/7/8) activity, inhibitor; HEK293T; 24 h): 2750 nM
Cc1ccc(O)cc1CN(C)[C@H](C)c1cccc2ccccc12  EC50 (rep papain-like protease; enzyme activity in cells, inhibitor): < 10000 nM
CCCCCCCCCCCCCCCC(=O)N[C@@H](CCC(=O)NCCOCCOCCC(=O)NCCOCCOCCC(=O)NCCCC[C@H](NC(=O)[C@H](CC(=O)O)NC(=O)[C@H](CC(C)C)NC(=O)[C@H](Cc1ccc(O)cc1)NC(=O)[C@H](CCCCN)NC(=O)[C@H](CO)NC(=O)[C@H](Cc1ccc(O)cc1)NC(=O)[C@H](CC(=O)O)NC(=O)[C@H](CO)NC(=O)[C@@H](NC(=O)[C@H](Cc1ccccc1)NC(=O)[C@@H](NC(=O)CNC(=O)[C@H](CCC(N)=O)NC(=O)[C@@H](CO)NC(=O)[C@@H](N)Cc1c[nH]cn1)[C@@H](C)O)[C@@H](C)O)C(=O)N[C@@H](CCCNC(=N)N)C(=O)N[C@@H](CCCNC(=N)N)C(=O)N[C@@H](C)C(=O)N[C@@H](CCC(N)=O)C(=O)N[C@@H](CC(=O)O)C(=O)N[C@@H](Cc1ccccc1)C(=O)N[C@H](C(=O)N[C@@H](CCC(N)=O)C(=O)N[C@@H](Cc1c[nH]c2ccccc12)C(=O)N[C@@H](CC(C)C)C(=O)N[C@@H](CC(C)C)C(=O)N[C@@H](CC(N)=O)C(=O)N[C@H](C(=O)NCC(=O)NCC(=O)N1CCC[C@H]1C(=O)N[C@@H](CO)C(=O)N[C@@H](CO)C(=O)NCC(=O)N[C@@H](C)C(=O)N1CCC[C@H]1C(=O)N1CCC[C@H]1C(=O)N1CCC[C@H]1C(=O)N[C@@H](CO)C(N)=O)[C@@H](C)O)C(C)C)C(=O)O  AUC(0-t) (rhesus monkey, plasma; subcutaneous, 20 µg/kg, multiple doses): 90.7 ng·h/mL
Cc1cc(O)ccc1CN(C)[C@H](C)c1cccc2ccccc12  EC50 (rep papain-like protease; enzyme activity in cells, inhibitor): 55100 nM
CCn1ccc(-c2cc(-c3cnn(CCOC)c3)cc([C@@H](C)NC(=O)c3cc(OCCN(C)C)ccc3C)c2)n1  EC50 (rep papain-like protease; protease activity, inhibitor, FlipGFP; SARS-CoV-2): 2000 ± 300 nM
CCOc1cccc(NC(=O)CSc2cn(C(=O)OC(C)(C)C)c3ccccc23)c1  EC50 (rep nsp12 RdRp; SARS-CoV-2 RdRp (nsp12/7/8) activity, inhibitor; HEK293T; 24 h): 1410 nM
Cc1ccc(OCCN(C)C)cc1C(=O)N[C@H](C)c1cc(-c2cnn(C)c2)cc(-c2cnn(C(F)F)c2)c1  EC50 (rep papain-like protease; protease activity, inhibitor, FlipGFP; SARS-CoV-2): 2100 ± 200 nM
Cc1ccc(N)cc1CN(C)[C@H](C)c1cccc2ccccc12  EC50 (rep papain-like protease; enzyme activity in cells, inhibitor): < 10000 nM

Excerpt of the above:
Cc1ccc(OCCN(C)C)cc1C(=O)N[C@H](C)c1cc(-c2cnn(C)c2)cc(-c2cnn(C)c2)c1  EC50 (rep papain-like protease; protease activity, inhibitor, FlipGFP; SARS-CoV-2): 1800 ± 200 nM
